Literature values that unrelated publications cite.
Lines come from different studies, so protocols differ. ± gives the spread as reported.

Amino acid sequences for entries named in this document (tags omitted). Residues count along the entry.
UniProt P51532, 1453-1564 limits assumed: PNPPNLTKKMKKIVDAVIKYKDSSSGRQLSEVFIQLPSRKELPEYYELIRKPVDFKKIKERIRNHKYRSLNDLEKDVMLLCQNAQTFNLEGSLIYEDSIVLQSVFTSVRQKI
UniProt Q62645, 28-1323 limits assumed: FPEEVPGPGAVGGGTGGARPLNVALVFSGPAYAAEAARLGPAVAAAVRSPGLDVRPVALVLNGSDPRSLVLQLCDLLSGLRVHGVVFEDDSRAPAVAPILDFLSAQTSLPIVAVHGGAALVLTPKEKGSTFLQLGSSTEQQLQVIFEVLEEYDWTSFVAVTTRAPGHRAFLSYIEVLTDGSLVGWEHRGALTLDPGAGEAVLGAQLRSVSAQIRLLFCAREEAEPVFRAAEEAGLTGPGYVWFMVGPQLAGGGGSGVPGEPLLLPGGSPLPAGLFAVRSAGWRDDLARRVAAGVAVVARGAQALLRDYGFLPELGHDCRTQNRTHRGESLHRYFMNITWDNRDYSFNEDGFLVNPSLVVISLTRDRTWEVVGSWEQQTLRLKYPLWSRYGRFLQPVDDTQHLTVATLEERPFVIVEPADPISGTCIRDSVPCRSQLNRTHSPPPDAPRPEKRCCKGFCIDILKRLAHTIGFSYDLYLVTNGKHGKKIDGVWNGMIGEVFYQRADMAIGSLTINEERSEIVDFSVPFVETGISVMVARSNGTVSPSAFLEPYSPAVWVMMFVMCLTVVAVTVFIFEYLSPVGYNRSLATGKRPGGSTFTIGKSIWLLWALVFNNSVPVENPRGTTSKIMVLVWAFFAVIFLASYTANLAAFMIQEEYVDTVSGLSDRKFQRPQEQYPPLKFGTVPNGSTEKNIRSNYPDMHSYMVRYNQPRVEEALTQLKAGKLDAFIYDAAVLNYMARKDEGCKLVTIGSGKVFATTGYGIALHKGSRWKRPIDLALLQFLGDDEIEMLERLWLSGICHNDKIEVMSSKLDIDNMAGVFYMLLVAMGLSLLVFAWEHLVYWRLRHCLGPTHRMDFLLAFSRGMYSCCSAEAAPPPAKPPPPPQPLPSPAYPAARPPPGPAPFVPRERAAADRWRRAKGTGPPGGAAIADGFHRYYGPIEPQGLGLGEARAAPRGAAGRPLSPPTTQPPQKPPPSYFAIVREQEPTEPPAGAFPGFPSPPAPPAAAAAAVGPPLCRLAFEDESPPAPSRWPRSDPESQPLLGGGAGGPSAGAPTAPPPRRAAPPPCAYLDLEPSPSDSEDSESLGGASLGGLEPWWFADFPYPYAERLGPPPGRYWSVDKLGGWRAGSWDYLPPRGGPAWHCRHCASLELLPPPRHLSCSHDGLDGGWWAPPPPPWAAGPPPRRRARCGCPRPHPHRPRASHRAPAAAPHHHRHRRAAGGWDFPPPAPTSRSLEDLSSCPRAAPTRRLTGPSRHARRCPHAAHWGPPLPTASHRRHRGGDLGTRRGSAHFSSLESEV

COc1cc(O)cc2ccc3cc(O)ccc3c12 — IC50 (CDK4/6; kinase activity, inhibitor): 0.038 µM
C/C=C/Cn1c(Cc2cc(OC)c(OC)c(OC)c2)nc2c(N)ncnc21 — IC50 (Hsp90β; binding, fluorescence polarization competition): 89.8 ± 12.6 µM
CCC[C@H](O)[C@H](NC[C@@H]1Cc2cccc(c2)CCCCc2cc(cc(N(CCC)S(C)(=O)=O)c2)C(=O)N1)C(=O)NCC(C)C — Ki (BACE1; enzyme activity, inhibitor, fluorogenic peptide substrate): 7 ± 5 nM
Cc1cc(C)cc(Nc2nccc(-c3c(-c4ccc(F)cc4)ncn3C3CCNCC3)n2)c1 — inhibition (SMARCA4 (Homo sapiens, UniProt P51532); concentration not given): > 35%
CCC[C@@H]([C@@H](CC(C)C)C(=O)N[C@@H](CCCCNC(=O)OCc1ccccc1)C(=O)Nc1nccs1)N(O)C=O — IC50 (recombinant ADAM10; enzyme activity, inhibitor): 0.0115 µM
Cc1ccsc1C(=O)n1nc(Nc2ccc(S(N)(=O)=O)cc2)nc1N — IC50 (CDK4/6; kinase activity, inhibitor): 0.00134 µM
CC(C)(C)OC(=O)C1=CC(C)(C(=O)c2ccccc2)CCC1=O (stereo not shown) — dissociation half-life (RSK2 C-terminal kinase domain; binding): 240 min
Cc1cccc(C2NC(=O)c3c(Cl)cccc3N2)c1 (racemic) — binding (SMARCA2 bromodomain; DSF and ITC; concentration not given, racemate): no binding
CN(C)Cc1cn(Cc2ccc(C(=O)NO)cc2)c2ccccc12 — potency fold change (HDAC10 (human); enzyme activity, inhibitor; concentration not given; baseline: over Tubastatin A, higher = more potent): 2.4 fold
CCC(C)NC(=O)CSc1nnc(Nc2ccc(C(C)C)cc2)s1 (stereo not shown) — IC50 (WI-38; cytotoxicity): > 100 µM
CNC(=O)[C@@]12C[C@@H]1[C@@H](n1cnc3c(NCCc4ccc(OC)c(OC)c4)nc(C#Cc4ccc(Cl)s4)nc31)[C@H](O)[C@@H]2O — remaining compound (simulated intestinal fluid; 120 min): 100%
CNc1nc(C)c(-c2nc(Nc3ccc(N4CCC(N)CC4)cn3)ncc2F)s1 — IC50 (CDK4/6; kinase activity, inhibitor): 41.5 µM
NS(=O)(=O)c1c(F)c(F)c(S(=O)(=O)CCO)c(NC2CCCCCCC2)c1F — pKa (sulfonamide group): 8.2
Cc1ccc(Cn2cnc3ccccc32)cc1C — Kd (CYP125 Mycobacterium tuberculosis): 1300 ± 700 nM
O=C(O)c1cc([C@H]2CCN[C@@H]2C(=O)O)ccc1Cl — IC50 (Glutamate receptor ionotropic, NMDA 2D, with GluN1 (Rattus norvegicus, UniProt Q62645); ion current, antagonist, two-electrode voltage clamp; GluN1/GluN2D): 41 µM
c1ccc(CCN2CCN(c3cc(N4CCCC4)nc(N4CCCC4)n3)CC2)cc1 — Ki (caspase-4; inhibitor; range shared with caspase-1): 8 to 16 nM

Some of these lines once more:
CCC(C)NC(=O)CSc1nnc(Nc2ccc(C(C)C)cc2)s1 (stereo not shown) — IC50 (WI-38; cytotoxicity): > 100 µM
Cc1cccc(C2NC(=O)c3c(Cl)cccc3N2)c1 (racemic) — binding (SMARCA2 bromodomain; DSF and ITC; concentration not given, racemate): no binding
